{"data": "Measurements gathered from unrelated publications", "FKBP5": "Peptidyl-prolyl cis-trans isomerase FKBP5 (FKBP5, Homo sapiens, UniProt Q13451)", "CA2": "Carbonic anhydrase 2 (CA2, Bos taurus, UniProt P00921)", "KAI2": "KAI2 (Arabidopsis thaliana, UniProt Q9SZU7)", "chemotaxis protein CheW": "chemotaxis protein CheW (Vibrio campbellii, UniProt A0A0A3EMQ5)", "note": "Each line is one published result; not all experiments were run side by side. “And” joins repeats or separate records; there may be more than shown. ± gives the spread as reported.", "chain of UniProt P00921 (whole entry, looked up)": "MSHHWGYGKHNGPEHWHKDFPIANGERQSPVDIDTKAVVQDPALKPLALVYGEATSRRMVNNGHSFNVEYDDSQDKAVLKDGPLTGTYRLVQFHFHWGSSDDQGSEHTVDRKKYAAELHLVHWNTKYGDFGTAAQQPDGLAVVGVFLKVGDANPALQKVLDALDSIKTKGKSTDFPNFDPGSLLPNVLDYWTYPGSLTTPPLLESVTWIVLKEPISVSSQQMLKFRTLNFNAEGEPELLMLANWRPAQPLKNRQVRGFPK", "chain of UniProt Q9SZU7 (whole entry, unmodified, looked up)": "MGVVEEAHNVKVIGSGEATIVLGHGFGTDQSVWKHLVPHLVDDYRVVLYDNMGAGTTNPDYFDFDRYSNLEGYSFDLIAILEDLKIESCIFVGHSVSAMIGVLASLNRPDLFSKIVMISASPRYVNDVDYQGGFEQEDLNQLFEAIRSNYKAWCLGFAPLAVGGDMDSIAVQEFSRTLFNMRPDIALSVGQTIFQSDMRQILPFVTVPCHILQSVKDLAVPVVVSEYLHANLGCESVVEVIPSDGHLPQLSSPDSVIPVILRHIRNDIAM", "chain of UniProt Q13451 (whole entry, looked up)": "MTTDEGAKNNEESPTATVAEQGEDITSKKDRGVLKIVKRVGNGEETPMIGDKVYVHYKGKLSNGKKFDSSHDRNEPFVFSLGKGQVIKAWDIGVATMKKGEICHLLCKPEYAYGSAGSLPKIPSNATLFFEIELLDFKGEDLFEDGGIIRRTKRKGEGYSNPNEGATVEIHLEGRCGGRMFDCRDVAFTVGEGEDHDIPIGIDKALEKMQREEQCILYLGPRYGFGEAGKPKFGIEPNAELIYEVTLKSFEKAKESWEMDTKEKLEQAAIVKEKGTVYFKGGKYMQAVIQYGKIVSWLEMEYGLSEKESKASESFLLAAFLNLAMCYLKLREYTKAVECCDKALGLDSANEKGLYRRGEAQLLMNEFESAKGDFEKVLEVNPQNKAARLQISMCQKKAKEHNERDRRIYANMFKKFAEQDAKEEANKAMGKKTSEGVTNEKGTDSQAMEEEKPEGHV", "chain of UniProt Q01201 (whole entry, looked up)": "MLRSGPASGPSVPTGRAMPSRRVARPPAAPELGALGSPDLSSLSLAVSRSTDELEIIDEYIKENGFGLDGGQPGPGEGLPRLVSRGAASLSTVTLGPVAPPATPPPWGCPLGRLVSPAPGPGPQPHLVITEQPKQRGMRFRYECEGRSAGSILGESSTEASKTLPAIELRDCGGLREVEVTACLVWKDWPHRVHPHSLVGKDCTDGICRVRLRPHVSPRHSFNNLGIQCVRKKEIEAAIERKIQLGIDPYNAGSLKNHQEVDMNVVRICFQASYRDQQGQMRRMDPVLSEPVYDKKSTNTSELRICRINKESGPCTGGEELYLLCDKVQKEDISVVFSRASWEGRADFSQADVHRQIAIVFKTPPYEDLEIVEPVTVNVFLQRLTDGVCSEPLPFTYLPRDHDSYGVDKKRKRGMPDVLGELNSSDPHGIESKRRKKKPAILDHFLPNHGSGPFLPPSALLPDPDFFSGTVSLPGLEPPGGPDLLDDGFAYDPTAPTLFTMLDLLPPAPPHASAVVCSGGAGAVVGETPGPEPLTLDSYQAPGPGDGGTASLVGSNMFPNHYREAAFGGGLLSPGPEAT", "chain of UniProt Q91XB0 (whole entry, looked up)": "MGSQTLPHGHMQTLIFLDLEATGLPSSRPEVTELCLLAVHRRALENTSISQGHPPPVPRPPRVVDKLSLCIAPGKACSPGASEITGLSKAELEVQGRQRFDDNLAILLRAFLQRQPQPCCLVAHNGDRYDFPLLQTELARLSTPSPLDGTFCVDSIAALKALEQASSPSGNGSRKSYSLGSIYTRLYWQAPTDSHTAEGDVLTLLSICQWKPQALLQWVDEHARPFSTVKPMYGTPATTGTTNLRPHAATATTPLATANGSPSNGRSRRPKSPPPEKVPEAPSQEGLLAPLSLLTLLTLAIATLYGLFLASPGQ", "chain of UniProt P31725 (whole entry, looked up)": "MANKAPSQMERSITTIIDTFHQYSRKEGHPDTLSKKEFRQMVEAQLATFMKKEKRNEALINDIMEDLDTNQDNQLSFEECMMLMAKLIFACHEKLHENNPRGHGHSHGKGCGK", "chain of UniProt P19484 (whole entry, looked up)": "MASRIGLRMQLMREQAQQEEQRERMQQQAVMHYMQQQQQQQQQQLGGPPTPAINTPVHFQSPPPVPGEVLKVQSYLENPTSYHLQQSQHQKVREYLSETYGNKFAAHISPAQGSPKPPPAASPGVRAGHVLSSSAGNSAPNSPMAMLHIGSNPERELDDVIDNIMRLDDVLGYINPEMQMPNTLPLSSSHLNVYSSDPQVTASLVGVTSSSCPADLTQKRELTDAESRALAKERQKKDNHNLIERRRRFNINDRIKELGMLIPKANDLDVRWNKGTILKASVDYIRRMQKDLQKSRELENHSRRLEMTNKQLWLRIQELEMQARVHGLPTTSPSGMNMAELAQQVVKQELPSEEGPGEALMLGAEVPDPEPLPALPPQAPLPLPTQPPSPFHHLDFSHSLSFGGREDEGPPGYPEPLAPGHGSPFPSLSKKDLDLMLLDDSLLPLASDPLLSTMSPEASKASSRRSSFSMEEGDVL", "chain of UniProt P04756 (whole entry, unmodified, looked up)": "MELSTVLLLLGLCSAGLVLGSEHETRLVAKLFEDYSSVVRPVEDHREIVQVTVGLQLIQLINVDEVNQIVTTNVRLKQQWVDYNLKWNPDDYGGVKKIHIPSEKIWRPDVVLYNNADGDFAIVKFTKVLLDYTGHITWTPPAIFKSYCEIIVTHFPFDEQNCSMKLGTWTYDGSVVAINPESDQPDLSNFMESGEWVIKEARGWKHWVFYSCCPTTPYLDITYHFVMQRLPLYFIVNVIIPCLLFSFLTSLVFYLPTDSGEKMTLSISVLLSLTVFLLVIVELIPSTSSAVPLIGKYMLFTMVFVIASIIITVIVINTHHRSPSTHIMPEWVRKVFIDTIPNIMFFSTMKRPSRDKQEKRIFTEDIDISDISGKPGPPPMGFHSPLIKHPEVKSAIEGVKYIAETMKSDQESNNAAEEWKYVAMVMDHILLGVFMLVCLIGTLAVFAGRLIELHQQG", "chain of UniProt Q86YV5 (whole entry, looked up)": "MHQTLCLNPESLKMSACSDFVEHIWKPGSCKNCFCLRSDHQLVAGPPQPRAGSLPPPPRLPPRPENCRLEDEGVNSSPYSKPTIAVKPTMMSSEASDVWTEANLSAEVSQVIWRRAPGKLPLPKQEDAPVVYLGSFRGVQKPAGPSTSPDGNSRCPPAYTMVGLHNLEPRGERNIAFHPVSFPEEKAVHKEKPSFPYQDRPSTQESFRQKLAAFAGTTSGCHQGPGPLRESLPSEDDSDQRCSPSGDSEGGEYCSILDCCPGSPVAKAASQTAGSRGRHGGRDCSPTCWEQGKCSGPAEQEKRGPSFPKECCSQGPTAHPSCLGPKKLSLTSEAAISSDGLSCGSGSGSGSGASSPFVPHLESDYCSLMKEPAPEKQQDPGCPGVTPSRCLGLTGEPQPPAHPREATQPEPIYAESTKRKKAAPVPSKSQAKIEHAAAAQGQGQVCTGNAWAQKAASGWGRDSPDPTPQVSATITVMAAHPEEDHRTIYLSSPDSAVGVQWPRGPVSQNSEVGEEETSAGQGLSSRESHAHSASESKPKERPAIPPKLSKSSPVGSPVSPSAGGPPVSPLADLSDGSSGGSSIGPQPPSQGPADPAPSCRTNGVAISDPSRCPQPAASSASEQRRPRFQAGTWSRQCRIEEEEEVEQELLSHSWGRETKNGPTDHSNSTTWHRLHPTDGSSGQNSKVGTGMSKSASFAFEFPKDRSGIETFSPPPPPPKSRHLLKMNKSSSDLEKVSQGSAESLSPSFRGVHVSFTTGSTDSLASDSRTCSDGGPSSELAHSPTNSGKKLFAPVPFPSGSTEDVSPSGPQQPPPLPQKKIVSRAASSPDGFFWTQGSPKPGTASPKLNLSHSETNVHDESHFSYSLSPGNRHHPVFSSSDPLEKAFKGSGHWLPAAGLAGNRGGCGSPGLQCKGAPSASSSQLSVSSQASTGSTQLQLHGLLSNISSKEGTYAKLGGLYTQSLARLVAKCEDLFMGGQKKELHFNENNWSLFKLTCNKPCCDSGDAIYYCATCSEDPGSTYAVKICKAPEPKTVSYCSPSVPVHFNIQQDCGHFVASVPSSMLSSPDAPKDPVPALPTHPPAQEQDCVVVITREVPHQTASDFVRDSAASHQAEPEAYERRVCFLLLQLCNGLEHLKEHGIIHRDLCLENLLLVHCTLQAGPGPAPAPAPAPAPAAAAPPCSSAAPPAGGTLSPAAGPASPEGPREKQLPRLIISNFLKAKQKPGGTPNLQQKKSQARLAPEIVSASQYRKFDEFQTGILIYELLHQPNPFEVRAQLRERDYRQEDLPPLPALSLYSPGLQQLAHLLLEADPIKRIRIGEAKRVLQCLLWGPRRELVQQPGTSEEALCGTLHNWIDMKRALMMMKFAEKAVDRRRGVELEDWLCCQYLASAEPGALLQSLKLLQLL", "chain of UniProt P02716 (whole entry, unmodified, looked up)": "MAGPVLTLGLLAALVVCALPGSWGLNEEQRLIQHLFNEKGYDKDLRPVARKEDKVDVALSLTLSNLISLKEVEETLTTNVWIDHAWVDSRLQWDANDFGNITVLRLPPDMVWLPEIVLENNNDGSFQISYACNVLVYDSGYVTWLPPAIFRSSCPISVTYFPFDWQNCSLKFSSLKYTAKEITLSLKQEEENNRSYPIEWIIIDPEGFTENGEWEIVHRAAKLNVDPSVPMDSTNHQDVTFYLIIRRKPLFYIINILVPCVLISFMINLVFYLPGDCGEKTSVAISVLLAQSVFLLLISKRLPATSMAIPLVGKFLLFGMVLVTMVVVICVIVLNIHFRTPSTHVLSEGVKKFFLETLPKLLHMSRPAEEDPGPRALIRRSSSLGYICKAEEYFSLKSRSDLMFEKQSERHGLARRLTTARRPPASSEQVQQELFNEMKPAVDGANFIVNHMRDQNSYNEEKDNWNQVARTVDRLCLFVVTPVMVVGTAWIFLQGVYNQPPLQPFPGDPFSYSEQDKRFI"}
{"SMILES": "C=CC1CN(Cc2ccccn2)C(=O)C2CCCC1N2S(=O)(=Nc1ccccc1)c1cc(Cl)cc(Cl)c1 (stereo not shown)", "target or system": "FKBP5", "test": "ligand displacement, FP", "quantity": "Kd", "value": "> 40 µM"}
{"SMILES": "O=C(O)c1cc(C(=O)CC(=O)c2cc(C(=O)O)c(O)c3ccccc23)c2ccccc2c1O", "target or system": "Three-prime repair exonuclease 1 (Trex1, Mus musculus, UniProt Q91XB0)", "test": "binding, fluorescence", "quantity": "Kd", "value": "19.6 µM"}
{"SMILES": "NS(=O)(=O)c1ccc(N2C(=O)c3ccc(N4CCOCC4)cc3C2=O)cc1", "target or system": "CA2", "test": "binding", "quantity": "Kd", "value": "0.28 µM"}
{"SMILES": "NC(=O)c1cccc(NC(=O)c2cc(-c3cccs3)n(-c3ccc(Cl)cc3)n2)c1", "target or system": "Genome polyprotein, NS2B-NS3 protease (dengue virus type 2, UniProt P29990)", "test": "reporter gene", "system": "HeLa", "quantity": "EC50", "value": "17 µM"}
{"SMILES": "C[N+](C)(C)CCOC(N)=O", "target or system": "Chrnd/Chrna1/Chrne (Mus musculus, UniProt P02716+P04756+P20782, G173K/S470W)", "test": "resting state binding, agonist, single-channel kinetics", "quantity": "Kd", "value": "0.69 µM"}
{"SMILES": "CCN(CC)C(=O)c1cnn2ccc(C3CCN(S(=O)(=O)c4ccc(NC(C)=O)cc4)CC3)cc12", "target or system": "Inactive tyrosine-protein kinase PRAG1 (PRAG1, Homo sapiens, UniProt Q86YV5)", "test": "binding", "quantity": "Kd", "value": "0.89 ± 0.07 µM"}
{"SMILES": "O=C(N1CCc2ccccc21)n1ccnn1", "target or system": "KAI2", "test": "binding, ITC", "quantity": "Kd", "value": "200 µM"}
{"SMILES": "C/C(=N\\Nc1ncnc2sc3c(c12)CCCC3)c1cc(O)ccc1O", "target or system": "Transcription factor RelB (RELB, Homo sapiens, UniProt Q01201)", "test": "binding, microscale thermophoresis", "quantity": "Kd", "value": "1.1 µM and 1.11 µM"}
{"SMILES": "NC[C@H](O)c1ccc(O)c(O)c1", "target or system": "chemotaxis protein CheW", "test": "binding, microscale thermophoresis", "system": "PBS with 0.05% Tween 20", "setting": "room temperature, His-tagged protein, labelled", "quantity": "Kd", "value": "0.74 ± 0.42 µM"}
{"SMILES": "CC(C)(C)n1cc(CN(Cc2cn(CCOCCOCCOCCOCCOCCO)nn2)Cc2cn(C(C)(C)C)nn2)nn1", "target or system": "Cu(I)", "test": "binding, bicinchoninic acid competition", "setting": "4000 µM, added: bicinchoninic acid 40 µM", "quantity": "Kd", "value": "0.00023 µM"}
{"SMILES": "CN(C)c1ccc2c(c1)C(=O)N(CCc1ccc(S(N)(=O)=O)cc1)C2=O", "target or system": "CA2", "test": "binding", "quantity": "Kd", "value": "0.49 µM"}
{"SMILES": "O=C(N1CCc2cccc(F)c21)n1ccnn1", "target or system": "KAI2", "test": "binding, ITC", "quantity": "Kd", "value": "164 µM"}
{"SMILES": "C=CC(=O)N1CC2(CCN(c3nc(OC4CCN(CCCOC)CC4)nc4c(OCC(F)(F)F)c(-c5c(C)ccc6[nH]ncc56)c(C5CC5)cc34)CC2)C1", "target or system": "GTPase KRas, GDP-bound (KRAS, Homo sapiens, UniProt P01116, G12V)", "test": "SPR", "quantity": "Kd", "value": "40.7 ± 1.5 µM"}
{"SMILES": "CNC[C@H](O)c1ccc(O)c(O)c1", "target or system": "chemotaxis protein CheW", "test": "binding, microscale thermophoresis", "system": "PBS with 0.05% Tween 20", "setting": "room temperature, His-tagged protein, labelled", "quantity": "Kd", "value": "0.68 ± 0.34 µM"}
{"SMILES": "Cc1cccc2c1N(C(=O)n1nccn1)CC2", "target or system": "KAI2", "test": "binding, ITC", "quantity": "Kd", "value": "210 µM"}
{"SMILES": "O=C(O)CCC(=O)c1cccc(NS(=O)(=O)c2c[nH]c3ncccc23)c1", "target or system": "Ubiquitin carboxyl-terminal hydrolase 49, ZnF-UBD domain (USP49, Homo sapiens, UniProt Q70CQ1)", "quantity": "Kd", "value": "> 1000 µM"}
{"SMILES": "Nc1ncc(-c2nc(N3CCOCC3)nc(N3CCOCC3)n2)c(C(F)F)n1", "target or system": "Serine/threonine-protein kinase mTOR (MTOR, Homo sapiens, UniProt P42345)", "test": "binding, competition with immobilised ligand", "quantity": "Kd", "value": "0.022 µM"}
{"SMILES": "C=CC(=O)N1C[C@H](C)N(c2nc(OC[C@@]34CCCN3C[C@H](F)C4)nc3c(F)c(-c4ccc(F)c5sc(N)c(C#N)c45)c(C(F)(F)F)cc23)C[C@H]1C", "target or system": "GTPase KRas, GppNHp-bound (KRAS, Homo sapiens, UniProt P01116)", "test": "SPR kinetic fit", "setting": "GppNHp-bound wild type", "quantity": "Kd", "value": "12.4 ± 1 µM"}
{"SMILES": "O=C(c1ccco1)N1CCc2ccccc21", "target or system": "KAI2", "test": "isothermal titration calorimetry", "quantity": "Kd", "value": "224 µM and 246 µM"}
{"SMILES": "C=CC1CN(Cc2ccccn2)C(=O)C2CCCC1N2S(=O)(=NC)c1cc(Cl)cc(Cl)c1 (stereo not shown)", "target or system": "FKBP5", "test": "ligand displacement, FP", "quantity": "Kd", "value": "> 40 µM"}
{"SMILES": "O=C(N1CCc2ccccc21)n1ccnc1", "target or system": "KAI2", "test": "ITC", "setting": "mean of replicates", "quantity": "Kd", "value": "106 µM"}
{"SMILES": "O=C1C2CCCC(C(C(O)CO)CN1Cc1ccccn1)N2S(=O)(=Nc1ccccc1)c1cc(Cl)cc(Cl)c1 (stereo not shown)", "target or system": "FKBP5", "test": "ligand displacement, FP", "quantity": "Kd", "value": "> 40 µM"}
{"SMILES": "Cc1cccc2c1N(C(=O)n1ccnn1)CC2", "target or system": "KAI2 (Arabidopsis thaliana, UniProt Q9SZU7, A219S)", "test": "ITC", "setting": "A219S mutant", "quantity": "Kd", "value": "10.3 µM and 18.6 µM and 13.2 µM"}
{"SMILES": "CC1=NN(c2ccc(C)c(C)c2)C(=O)/C1=N\\Nc1cccc(-c2cccc(C(=O)NCCOCCOCCNC(=O)CCCC[C@@H]3SC[C@@H]4NC(=O)N[C@@H]43)c2)c1O", "target or system": "Transcription factor EB, bHLH-LZ domain (TFEB, Homo sapiens, UniProt P19484)", "test": "binding, SPR", "setting": "compound immobilised on SA chip", "quantity": "Kd", "value": "0.304 µM"}
{"SMILES": "CN(C)c1ccc(/C=C/c2cc(/C=C3\\Sc4ccccc4N3CCCN3CCCC3)c3ccccc3[n+]2C)cc1", "target or system": "Pu27 DNA", "test": "isothermal titration calorimetry", "setting": "pH 7.4, 25 °C, 2% DMSO", "quantity": "Kd", "value": "14.4 µM"}
{"SMILES": "COC1CN([C@H]2CC[C@H]([C@@]3(C)Oc4c(Cl)cc(C(=O)NCc5c(SC)cc(C)[nH]c5=O)c(C)c4O3)CC2)C1", "test": "RNA-seq, refers to: CACHD1", "system": "human, whole blood", "setting": "dose not given, 24 h", "how to read": "reference: pretreatment baseline", "quantity": "log2 fold change", "value": 2.46}
{"SMILES": "Cc1ncsc1-c1ccc(C(C)NC(=O)C2CC(O)CN2C(=O)C(NC(=O)CCCCCCCCCCN2CCCC(Nc3ncc(Cl)c(Nc4ccccc4S(=O)(=O)C(C)C)n3)C2)C(C)(C)C)cc1 (stereo not shown)", "target or system": "22Rv1", "test": "RNA-seq, refers to: ZSCAN26 mRNA", "setting": "concentration not given", "how to read": "reference: DMSO", "quantity": "log2 fold change", "value": -1.81}
{"SMILES": "CC1(C)[C@@H]2CC[C@@]1(C)[C@@H](O)C2", "target or system": "Protein S100-A9 (S100a9, Mus musculus, UniProt P31725)", "quantity": "Kd", "value": "0.0033 µM"}
{"SMILES": "CC(C)(C)n1cc(CN(Cc2cn(CC(=O)O)nn2)Cc2cn(C(C)(C)C)nn2)nn1", "target or system": "Cu(I)", "test": "binding, bicinchoninic acid competition", "setting": "500 µM, added: bicinchoninic acid 40 µM", "quantity": "Kd", "value": "0.00011 µM"}
{"SMILES": "O=C(N1CCc2cccc([N+](=O)[O-])c21)n1ccnn1", "target or system": "KAI2", "test": "binding, ITC", "quantity": "Kd", "value": "711 µM"}
{"SMILES": "CN(C)c1ccc2c(c1)C(=O)N(CCc1ccc(OS(N)(=O)=O)cc1)C2=O", "target or system": "CA2", "test": "binding", "quantity": "Kd", "value": "0.16 µM"}
{"note": "Some of these lines once more:"}
{"SMILES": "CN(C)c1ccc2c(c1)C(=O)N(CCc1ccc(S(N)(=O)=O)cc1)C2=O", "target or system": "CA2", "test": "binding", "quantity": "Kd", "value": "0.49 µM"}
{"SMILES": "O=C(N1CCc2ccccc21)n1ccnc1", "target or system": "KAI2", "test": "ITC", "setting": "mean of replicates", "quantity": "Kd", "value": "106 µM"}
